# Measured values gathered from unrelated publications.
# Protocols differ between the studies behind these lines. Values joined by “and” are separate records of one study, mostly repeats; a detail may differ. ± gives the spread as reported.
# TDP1: Tyrosyl-DNA phosphodiesterase 1 (TDP1, Homo sapiens, UniProt Q9NUW8)
# Sequence of UniProt Q9NUW8 (whole entry, looked up): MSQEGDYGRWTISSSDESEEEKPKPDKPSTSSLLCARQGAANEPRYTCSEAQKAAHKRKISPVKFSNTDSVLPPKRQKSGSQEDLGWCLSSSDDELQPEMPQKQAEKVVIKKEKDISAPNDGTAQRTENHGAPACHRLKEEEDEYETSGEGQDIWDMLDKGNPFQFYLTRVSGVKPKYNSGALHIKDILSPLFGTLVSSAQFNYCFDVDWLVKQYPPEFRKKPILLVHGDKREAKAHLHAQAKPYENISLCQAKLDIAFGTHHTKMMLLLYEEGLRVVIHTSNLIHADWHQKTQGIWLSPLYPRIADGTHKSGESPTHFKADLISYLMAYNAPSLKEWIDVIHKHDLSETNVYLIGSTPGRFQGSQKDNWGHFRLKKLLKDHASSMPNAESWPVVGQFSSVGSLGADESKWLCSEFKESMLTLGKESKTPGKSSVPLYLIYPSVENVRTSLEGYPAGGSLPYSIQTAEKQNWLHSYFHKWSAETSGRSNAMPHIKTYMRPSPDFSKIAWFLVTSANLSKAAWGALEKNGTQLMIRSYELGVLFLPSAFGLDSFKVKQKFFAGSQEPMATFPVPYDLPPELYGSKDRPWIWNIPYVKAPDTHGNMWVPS
SMILES,tested on,test,test system,conditions,how to read,measurement,value
Nc1nc(-c2ccccc2)nc2[nH]nc(Nc3ccc([N+](=O)[O-])cc3)c12,rhinovirus A2,viral cytopathic effect,HeLa,,,IC50,31.7 µM
CO[C@@H]1OC[C@@H](O)[C@H](O)[C@H]1O,Helicobacter pylori,"microbial growth, broth dilution",,125 µg/mL,,inhibition,42.2%
Nc1nc(-c2ccccc2)nc2[nH]nc(Nc3ccccc3)c12,rhinovirus A2,viral cytopathic effect,HeLa,,,IC50,2.44 µM
C[C@@H]1C(=O)O[C@@H](C)/C=C/C=C\[C@@H](C)[C@@H]2C=C[C@@H]3C[C@@]4(C)O[C@H]4[C@@H](C)[C@H]3[C@@H]2C(=O)C(Cl)(Cl)C1=O,Staphylococcus aureus,,MRSA clinical isolate,OXA resistant,,MIC,0.1 µg/mL
CC(C)[C@@H]1NC(=O)[C@@H](CCCNC(=N)N)NC(=O)[C@H]([C@@H](C)O)NC(=O)[C@@H](CCCN)NC(=O)[C@H](Cc2ccccc2)NC(=O)[C@@H](Cc2ccc(F)c(F)c2)NC1=O,Balamuthia mandrillaris,"parasite growth, ATP luminescence",,,,IC90,> 20 µM
CC=C(C)C(=O)OC1CC2C(C=C(C)C3C(OC(C)=O)CC(=O)C13C)OC(=O)C2C (centres unmarked),Helicobacter pylori,"microbial growth, broth dilution",,0.24 µg/mL,,inhibition,0%
CC(=O)OC[C@H]1O[C@@H](Sc2sc(C(=O)c3ccc(Br)cc3)c(N)c2-c2nc3ccccc3s2)[C@H](OC(C)=O)[C@@H](OC(C)=O)[C@H]1OC(C)=O,coxsackievirus B4,plaque reduction,,"non-toxic dose NG, mean over three titres",,viral reduction,40%
CO[C@@H]1[C@@H](OC)[C@H]2O[C@H]3[C@H](OC)[C@@H](OC)[C@@H](O[C@H]4[C@H](OC)[C@@H](OC)[C@@H](O[C@H]5[C@H](OC)[C@@H](OC)[C@@H](O[C@H]6[C@H](OC)[C@@H](OC)[C@@H](O[C@H]7[C@H](OC)[C@@H](OC)[C@@H](O[C@@H]1[C@@H](Cn1cc(CCCC(=O)N[C@H]8CCOC8=O)nn1)O2)O[C@@H]7Cn1cc(CCCC(=O)N[C@H]2CCOC2=O)nn1)O[C@@H]6Cn1cc(CCCC(=O)N[C@H]2CCOC2=O)nn1)O[C@@H]5Cn1cc(CCCC(=O)N[C@H]2CCOC2=O)nn1)O[C@@H]4Cn1cc(CCCC(=O)N[C@H]2CCOC2=O)nn1)O[C@@H]3Cn1cc(CCCC(=O)N[C@H]2CCOC2=O)nn1,Escherichia coli,"LuxR reporter, antagonist",DH5α sensor strain,"40 µM, with: OHHL 200 nM",,inhibition,16 ± 4%
COc1ccccc1-c1n[nH]c2nc(N[C@H]3CC[C@H](NS(=O)(=O)CC(C)C)CC3)ncc12,Leishmania donovani,parasite growth,,amastigote,,EC50,0.0052 µM
CC(=O)OC[C@H]1O[C@@H](Sc2sc(C(=O)c3ccc(Cl)cc3)c(N)c2-c2nc3ccccc3s2)[C@H](OC(C)=O)[C@@H](OC(C)=O)[C@H]1OC(C)=O,coxsackievirus B4,plaque reduction,,non-toxic concentration,,viral titre reduction,20%
CCOC(=O)c1cc(-c2nc3ccccc3s2)c(=O)n(NS(=O)(=O)c2ccc(Cl)cc2)c1N,coxsackievirus B4,"viral replication, plaque",BGM,"non-toxic dose, mean of three titres",,plaque reduction,0%
Cc1ccc(-c2nc(N)c3c(Nc4ccc(F)cc4)n[nH]c3n2)cc1,rhinovirus A2,viral cytopathic effect,HeLa,,,IC50,0.78 µM
C/C=C(/C)C(=O)O[C@@H]1C=C(C)CC[C@]2(O)[C@@H](C(C)C)CC(=O)[C@]12C,Helicobacter pylori,"microbial growth, broth dilution",,1.95 µg/mL,,inhibition,0%
CN(Cc1ccc(C2(C(F)(F)F)CCC2)cc1)Cc1cccc2ccccc12,Trichophyton rubrum,"microbial growth, disc diffusion",ATCC28188,"0.032 µg/mL, 6 days",,inhibition zone,34.2 mm
C=C(NC(=O)c1csc(-c2nc3c(cc2O)-c2nc(cs2)C(=O)NC(C(C)O)C(=O)NC(=C(C)OC)c2nc(cs2)C(=O)NC2c4nc(cs4)C(=O)NC(COC(=O)c4c5c6c(cccc6n4O)COC(=O)C(OC4CC(C)(O)C(N(C)C)C(C)O4)C2OC5)c2nc-3cs2)n1)C(N)=O (centres unmarked),Staphylococcus epidermidis,,"methicillin-resistant, 10 isolates",pH 8.5,,MIC50,0.0156 µg/mL
O=c1c(-c2nc3ccccc3s2)cc2c(n1NS(=O)(=O)c1ccccc1)CCCCCC2,human adenovirus 7,"viral replication, plaque",HEp-2,"non-toxic dose, mean of three titres",,plaque reduction,0%
CCCCCCCCCCn1cc[n+](CCCCCCOc2cc(OCCCCCC[n+]3ccn(CCCCCCCCCC)c3)cc(OCCCCCC[n+]3ccn(CCCCCCCCCC)c3)c2)c1.[Br-].[Br-].[Br-],Enterococcus faecalis,,OG1RF,,,MIC,4 µM
O=C(CCCc1cn(C[C@H]2O[C@@H]3O[C@H]4[C@H](O)[C@@H](O)[C@@H](O[C@H]5[C@H](O)[C@@H](O)[C@@H](O[C@H]6[C@H](O)[C@@H](O)[C@@H](O[C@H]7[C@H](O)[C@@H](O)[C@@H](O[C@H]8[C@H](O)[C@@H](O)[C@@H](O[C@H]9[C@H](O)[C@@H](O)[C@@H](O[C@H]2[C@H](O)[C@H]3O)O[C@@H]9Cn2cc(CCCC(=O)N[C@H]3CCOC3=O)nn2)O[C@@H]8Cn2cc(CCCC(=O)N[C@H]3CCOC3=O)nn2)O[C@@H]7Cn2cc(CCCC(=O)N[C@H]3CCOC3=O)nn2)O[C@@H]6Cn2cc(CCCC(=O)N[C@H]3CCOC3=O)nn2)O[C@@H]5Cn2cc(CCCC(=O)N[C@H]3CCOC3=O)nn2)O[C@@H]4Cn2cc(CCCC(=O)N[C@H]3CCOC3=O)nn2)nn1)N[C@H]1CCOC1=O,Escherichia coli,"LuxR reporter, antagonist",DH5α sensor strain,"200 µM, with: OHHL 200 nM",,inhibition,56 ± 1%
CC(=O)OC[C@H]1O[C@@H](Sc2sc(C(=O)c3ccc(C)cc3)c(N)c2-c2nc3ccccc3s2)[C@H](OC(C)=O)[C@@H](OC(C)=O)[C@@H]1OC(C)=O,human adenovirus 7,plaque reduction,,"non-toxic dose NG, mean over three titres",,viral reduction,16.7%
FC(F)(F)c1cccc(CNc2nc(NC3CCN(Cc4ccccc4)CC3)c3nc[nH]c3n2)c1,Cryptococcus neoformans,"RNA-seq, measured: TEP1 (CNAG_04833) mRNA",,"48 µg/mL, 3 h",baseline: untreated wild type,log2 fold change,-0.468
CN(C)C=C(C=NOCc1ccc(-c2nc3cc(-c4ccccc4)ccn3c2Nc2ccc(C(=O)O)cc2)cc1)c1ccccc1[N+](=O)[O-] (mixture of isomers),TDP1,"enzyme activity, inhibitor",,"100 µM, unpurified compound",,inhibition,27%
CC(=O)O[C@@H]1[C@@H](OC(C)=O)[C@H](Sc2sc(C(=O)c3ccc(Cl)cc3)c(N)c2-c2nc3ccccc3s2)OC[C@H]1OC(C)=O,coxsackievirus B4,plaque reduction,,non-toxic concentration,,viral titre reduction,20%
O=C(O)c1ccc(Nc2c(-c3ccccc3)nc3ccc(CON=Cc4sccc4Oc4ccccc4)cn23)cc1,TDP1,"enzyme activity, inhibitor",,"100 µM, unpurified compound",,inhibition,93.3%
Fc1ccc2c(c1)c1nc3ccc(Br)cc3c-1cn2Cc1cn(-c2ccccc2I)nn1,Giardia duodenalis,"UHPLC-Q-TOF-MS, measured: PC(O-14:0/2:0)",trophozoites,"IC50, 0.1363 h",baseline: 0.25% DMSO,fold change,2.23
Nc1nc(-c2ccccc2)nc2[nH]nc(Nc3ccc(O)cc3)c12,rhinovirus A2,viral cytopathic effect,HeLa,,,IC50,99.3 µM
CC(C)(C)NCC(SS(=O)(=O)O)c1ccccc1 (centres unmarked),Schistosoma mansoni,perfusion day 44,infected Swiss Webster mice,"600 mg/kg single dose, dosed day 1 post-infection",,liver weight,2.96 g and 1.9 g and 1.98 g and 2.9 g

# For quick reference, copied from above:
SMILES,tested on,test,test system,conditions,how to read,measurement,value
Nc1nc(-c2ccccc2)nc2[nH]nc(Nc3ccc(O)cc3)c12,rhinovirus A2,viral cytopathic effect,HeLa,,,IC50,99.3 µM
CC(C)(C)NCC(SS(=O)(=O)O)c1ccccc1 (centres unmarked),Schistosoma mansoni,perfusion day 44,infected Swiss Webster mice,"600 mg/kg single dose, dosed day 1 post-infection",,liver weight,2.96 g and 1.9 g and 1.98 g and 2.9 g
